Published values collected from several papers.
Every numbered part comes from another study and shows a few of its results, in no order. Positions count from the first letter of the parent shown.

Block 1
Target: RNA binding protein fox-1 homolog 2, RRM domain, GST-SBP tag (RBFOX2, Homo sapiens, UniProt O43251-10, residues 100-194)
Technique: RNA Bind-n-Seq
Molecule type: RNA
Sample: in vitro
Concentration: 365 nM
Setting: natural RNA segment, single round, ends assumed
Relative to: no-protein control
Direction: higher = stronger binding
Measurement: RBNS enrichment (R)
Shared flanks, not repeated: GGGAGUUCUACAGUCCGACGAUC … UGGAAUUCUCGGGUGCCAA
Target sequence (chain): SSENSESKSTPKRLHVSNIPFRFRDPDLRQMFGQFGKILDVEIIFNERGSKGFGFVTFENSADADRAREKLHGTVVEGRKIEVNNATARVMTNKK
Strand = UUAUGUUCUUCUAAGUAAUGCCUAUGACCCAAUGCAACUAGGCAGUAAGUAUCCACGACUCCAACCAGUAUUAUAGACCUUGGGGAUGUUUCAGAAUGUGGAAGUUACUA; value = 0.467
Strand = GAACCUGACAGAGAAGGGAAGGUUUCUAUAAAAAGAGACACCAGGCUUUGGGGGCCAGGGCUUCAUGAGACAAACUUCUUGCCAGCCAAUCACACAUUCUUCUCAGAAGA; value = 0.311
Strand = AUAGAGCGUUUCCCCUCUUGCUAACUCCCCAUUUUCUCCGUGAGCUCUGACUCCUAUUUAUCAUAUACUCACUCUGACUCUGAGGAAGGCAGAGAGGUGCCACUUGGCCU; value = 0.243
Strand = GAAUUUCCUGCCACUAACAUACACACAGUACCAGCCUUAAAACAAAAGACUAGGUACUGUAAGCAUACAUUUGUGCGAGCUGGCUUAGGGUUGGUUCCUCAUCCUCCACC; value = 0.298
Strand = GCCCACUGUCCCACUCCCACAUGUCUGGGCACCUGCCCUGGGCUGAGGCCAGGCUGCUCCAAGGGCCGCAUGAGCCCUAAUCUGCCACAGAGCAACCCAGGUUAAACACA; value = 0.459
Strand = CAGCUUCUCUGAUGGGAAAGUUCCUUUUUUGGCUUAACACUCACCCUUUCUUCACACUCACAUUUACCAAUGACUCUGCUCCGUUUUUGGAGCAGACUGUUUUAAGUUGC; value = 0.247
Strand = ACUGUUGCCAGAGAUGGAGGUUCUCUCGGAGUAUCUGGGAACUGUGCCUUUGAGUUUCCUCAGGCUGCUGGAGGAAAACUGAGACUCAGACAGGAAAGGGAAGGCCCCAC; value = 0.611
Strand = CAGGGCAGAGGAAACAAAACACAGCUAUCCUGUUGGCCUGUGUUGUGGUUUUGAAGUUUGUACUUUCUCUGUGGGUGCCAGUUAAAUAUUGGAGAGCAAGGAAUGUGGAC; value = 1.04
Strand = CUGGAGGCCAGACUGGGCUGUAGUUAGCUUUUCAUCCCUAAAGAAGGCUCCUUUCCCUAAGGAACCAUAGAAGAGAGGAAGAAAACAAAGGGCAUGUGUGAGGGAAGCUG; value = 1.81
Strand = AGUUCCCAUAAAACCUUCAUUACACAUAAAGAUACACGUGGGGGUCAGUGAAUCUGCUUGCCUUUCCUGAAAGUUUCUGGGGCUUAAGAUUCCAGACUCUGAUUCAUUAA; value = 0.27
Strand = UCGCUGGUAUUACAUCUUUUUAAAAGCCUAUUAUAACAUGGUUAGCCUAUAAGGCAGUGUUGGUCCCCUUCUAAUAUUGGCCUCAUAAAGGGGUUCCACUGUACUUUCCG; value = 0.449
Strand = UCCUUUGUAGCUUCAUAUGUGGCUUUUAAAAUGUCAUUUCUCUAGGGUAUCUUUUUAUAUCACAGCCUAGGACUCUUCCAUCUUAUAAUUACAAGCUGACAGUGUACAAU; value = 0.316

Block 2
Target: Sal-like protein 4, full length isoform A (SALL4, Homo sapiens, UniProt Q9UJQ4, residues 1-1053)
UniProt Q9UJQ4, sequence (whole entry, looked up): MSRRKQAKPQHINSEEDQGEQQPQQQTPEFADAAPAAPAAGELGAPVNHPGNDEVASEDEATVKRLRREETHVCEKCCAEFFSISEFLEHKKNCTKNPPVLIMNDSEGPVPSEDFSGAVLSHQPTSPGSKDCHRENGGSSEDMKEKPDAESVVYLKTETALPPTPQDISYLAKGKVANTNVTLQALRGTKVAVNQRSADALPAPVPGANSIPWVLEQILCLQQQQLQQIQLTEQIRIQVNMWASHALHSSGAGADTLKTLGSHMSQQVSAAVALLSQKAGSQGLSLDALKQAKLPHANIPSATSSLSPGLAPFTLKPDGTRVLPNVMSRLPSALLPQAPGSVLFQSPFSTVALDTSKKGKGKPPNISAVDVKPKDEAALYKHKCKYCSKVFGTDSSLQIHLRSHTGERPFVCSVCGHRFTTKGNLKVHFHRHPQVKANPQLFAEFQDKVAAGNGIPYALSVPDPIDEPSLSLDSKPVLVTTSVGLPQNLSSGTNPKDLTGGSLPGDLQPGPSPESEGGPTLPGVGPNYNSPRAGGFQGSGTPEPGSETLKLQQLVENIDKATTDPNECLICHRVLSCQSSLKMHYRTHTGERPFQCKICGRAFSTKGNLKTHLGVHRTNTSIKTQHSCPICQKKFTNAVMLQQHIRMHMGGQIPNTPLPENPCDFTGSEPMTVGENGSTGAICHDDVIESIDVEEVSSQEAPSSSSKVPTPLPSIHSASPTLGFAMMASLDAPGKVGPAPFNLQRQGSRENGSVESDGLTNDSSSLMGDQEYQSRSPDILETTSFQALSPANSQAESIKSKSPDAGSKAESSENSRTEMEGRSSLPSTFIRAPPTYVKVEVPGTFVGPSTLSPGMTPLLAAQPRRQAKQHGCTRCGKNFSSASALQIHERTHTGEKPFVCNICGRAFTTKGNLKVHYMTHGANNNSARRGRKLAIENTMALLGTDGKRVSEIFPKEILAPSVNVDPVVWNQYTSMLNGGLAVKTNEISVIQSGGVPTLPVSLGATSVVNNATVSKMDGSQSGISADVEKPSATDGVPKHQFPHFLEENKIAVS
Technique: universal PBM
Molecule type: double-stranded DNA, one strand shown
Sample: in vitro
Concentration: 600 nM
Setting: 8-mer, flanks averaged, mean of replicates
Direction: higher = stronger binding
Measurement: E-score
Strand = ATTTCTCC; value = 0.0825
Strand = ATTGTCGA; value = 0.0795
Strand = AACTACGA; value = 0.154
Strand = ACCGGAAT; value = -0.161
Strand = CATACCGG; value = -0.148
Strand = GACAAAGA; value = 0.0895
Strand = AGAGCGGG; value = -0.227
Strand = ACTCAGTC; value = -0.0968
Strand = GCAATTAA; value = 0.268
Strand = AGTCTTGC; value = 0.0527
Strand = ATCGCGCG; value = -0.116
Strand = GGCACGAA; value = -0.181
Strand = CTCGCCTC; value = -0.32
Strand = CGTATCTC; value = -0.0984
Strand = GCTATTAC; value = 0.257
Strand = AACAACGC; value = 0.107
Strand = ACTGGAAT; value = 0.053
Strand = AAGCATCA; value = 0.0453
Strand = GAGCCGGC; value = -0.269
Strand = AGCAAATG; value = 0.0575
Strand = AACAACTG; value = 0.161
Strand = ATACCTGG; value = -0.159
Strand = AATCATCA; value = 0.281

Block 3
Molecule: PhoQ, residues 284 288 289 292 302 303 QWQEDG
Technique: Sort-seq
Item: YFP reporter
Sample: E. coli
Setting: PhoQ-PhoP variant library
Added: 10 µM Mg2+
Relative to: high Mg2+ state
Direction: higher = stronger signaling
Measurement: fold induction
target = PhoP, residues 12 14 15 18 19 VGHWL (Escherichia coli, UniProt P23836); value = 10.6
target = PhoP, residues 12 14 15 18 19 TPWTL (Escherichia coli, UniProt P23836); value = 1.29
target = PhoP, residues 12 14 15 18 19 NFFVT (Escherichia coli, UniProt P23836); value = 10.4
target = PhoP, residues 12 14 15 18 19 LHHYF (Escherichia coli, UniProt P23836); value = 7.07

Block 4
Target: Interferon regulatory factor 5, full length, phosphomimetic (IRF5, Homo sapiens, UniProt Q13568-2, residues 1-514, K96S/S451D/S453D/S456D/S462D)
Technique: protein-binding microarray
Molecule type: double-stranded DNA, one strand shown
Sample: in vitro
Concentration: 250 nM
Setting: 60-bp whole probe
Added: salmon DNA 0.4 mg/ml
Relative to: random background probes
Direction: higher = stronger binding
Measurement: log fluorescence
Shared flanks, not repeated: GCCTAGCAC … GTCTTGATTCGCTTGACGCTGCTG
Strand = GACTATTTCGGGTTTCGAGACGTGCTA; value = 5.64 z-score
Strand = TTAGAACTCGGGTTTCGATTAGTGCTA; value = 6.66 z-score
Strand = TTGGATCTCAGTATCGATTAGTGCTAG; value = 5.92 z-score
Strand = GTCGGTTTCCTTCTCCTGACGTGCTAG; value = 1.47 z-score
Strand = ATAGGTCTCCTACTGCTTTAGTGCTAG; value = 0.0208 z-score
Strand = AGTGTTTCCCCTATTTAAGAGTGCTAG; value = 1.04 z-score
Strand = GACGGTATCGAAACTGGGGACGTGCTA; value = 6.45 z-score
Strand = TCTCTTTTGGCTTTCCTTTAGTGCTAG; value = 2.14 z-score
Strand = TTAGATTTCAGTCTCGACTAGTGCTAG; value = 2.12 z-score
Strand = GACGGTCTCCGTATCGGGACGTGCTAG; value = 0.5 z-score
Strand = GACGGTATTGGTATCGGGACGTGCTAG; value = 1.78 z-score
Strand = GACGGACTTGACTTTCGGGACGTGCTA; value = 4.9 z-score
Strand = TCACTTTTTTTTTTTTTACTGTGCTAG; value = 1.17 z-score
Strand = GACGGTCTCGATTTCGGGACGTGCTAG; value = 1.42 z-score
Strand = TCATATTAAATTTTCACACTGTGCTAG; value = 1.59 z-score
Strand = TTAGGTATCGGGACTGGGGTAGTGCTA; value = 1.67 z-score
Strand = TTAGGACTGGGTATCGGCTAGTGCTAG; value = 0.88 z-score
Strand = AGGAATTTCCCACTTTCACTGTGCTAG; value = 4.28 z-score
Strand = TTAGATTTCAGACTCGATTAGTGCTAG; value = 0.562 z-score
Strand = GACGGACTGCTACTTCTGACGTGCTAG; value = -0.418 z-score
Strand = GCTAGTGTGCCATATTTATCTGTGCTA; value = -0.0773 z-score
Strand = GCCGGTCTCGGTCTCGGGACGTGCTAG; value = 0.387 z-score
Strand = CAAGTTTCTCCTTTCCAAATGTGCTAG; value = 3.1 z-score

Block 5
Target: CCND3, cyclin fold, Cln2 fusion (human)
Technique: yeast growth competition, sequencing
Sample: yeast
Setting: weak parent motif
Relative to: not given
Direction: higher = stronger binding
Measurement: normalised enrichment score
Parent: CDKN1B docking peptide (human); PSACRNLFGPVDH
Change = N6D; value = 0.149
Change = A3L; value = 0.0765
Change = V11A; value = 0.143
Change = C4S; value = 0.139
Change = G9P; value = 0.0849
Change = N6I; value = 0.12
Change = G9F; value = 0.105
Change = P1T; value = 0.158
Change = L7Y; value = 0.119
Change = P10C; value = 0.0844
Change = R5A; value = 0.0585
Change = P10R; value = 0.162
Change = F8E; value = 0.0657
Change = R5S; value = 0.0374
Change = D12N; value = 0.188
Change = V11F; value = 0.09

Block 6
Target: Prothrombin, mature alpha-thrombin (F2, Homo sapiens, UniProt P00734)
Technique: aptamer microarray, sandwich
Molecule type: DNA with 2'F-ANA
Sample: in vitro
Concentration: 200 nM
Setting: whole 15-mer aptamer, many near background
Added: Cy3 exosite-II aptamer, 400 nM
Direction: higher = stronger binding
Measurement: mean fluorescence intensity
Strand: GGTTGGTGTGGTTGG
Modification = 2'F-ANA at 2 3 5 7 9 10 11 15; value = 55.3 a.u.
Modification = 2'F-ANA at 1 2 6 7 9 10 11 13 14; value = 51.3 a.u.
Modification = 2'F-ANA at 1 3 4 5 8 9 11; value = 58.7 a.u.
Modification = 2'F-ANA at 3 4 5 7 8 10 12 13 14; value = 49.5 a.u.
Modification = 2'F-ANA at 1 2 4 6 8 9 11 12 13; value = 148 a.u.
Modification = 2'F-ANA at 1 4; value = 137 a.u.
Modification = 2'F-ANA at 2 3 4 6 9 10 15; value = 224 a.u.
Modification = 2'F-ANA at 2 3 7 12 14 15; value = 497 a.u.
Modification = 2'F-ANA at 1 3 6 7 8 9 11 15; value = 247 a.u.
Modification = 2'F-ANA at 1 2 4 6 9 12 14 15; value = 58.8 a.u.
Modification = 2'F-ANA at 1 3 8 9 11 12 15; value = 496 a.u.
Modification = 2'F-ANA at 1 2 3 5 6 11 13 14; value = 48.7 a.u.
Modification = 2'F-ANA at 1 2 3 4 5 6 9 10; value = 51 a.u.
Modification = 2'F-ANA at 4 5 6 7 12 14 15; value = 46.6 a.u.
Modification = 2'F-ANA at 1 2 3 5 8 10 12 15; value = 48.2 a.u.
Modification = 2'F-ANA at 3 7 8 9 13 15; value = 897 a.u.
Modification = 2'F-ANA at 2 3 4 6 8 10 11 12 13 14 15; value = 154 a.u.
Modification = 2'F-ANA at 1 2 3 4 5 6 11 12 13 14; value = 66.4 a.u.
Modification = 2'F-ANA at 3 4 6 9 10 12 14 15; value = 183 a.u.

Block 7
Target: ABI1, truncated, D143A, DHFR fusion (Arabidopsis thaliana)
Technique: DHFR PCA, deep sequencing
Sample: yeast
Setting: methotrexate growth selection, single substitutions
Added: (+)-ABA 0.11 µM
Relative to: wild-type fitted maximum
Direction: higher = stronger binding
Measurement: relative binding score
Parent: PYL1, truncated, DHFR fusion (Arabidopsis thaliana); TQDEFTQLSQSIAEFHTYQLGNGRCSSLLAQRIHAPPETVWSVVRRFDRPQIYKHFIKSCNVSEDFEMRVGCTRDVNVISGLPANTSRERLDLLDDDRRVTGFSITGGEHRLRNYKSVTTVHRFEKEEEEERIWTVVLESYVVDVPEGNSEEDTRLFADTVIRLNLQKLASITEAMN; partner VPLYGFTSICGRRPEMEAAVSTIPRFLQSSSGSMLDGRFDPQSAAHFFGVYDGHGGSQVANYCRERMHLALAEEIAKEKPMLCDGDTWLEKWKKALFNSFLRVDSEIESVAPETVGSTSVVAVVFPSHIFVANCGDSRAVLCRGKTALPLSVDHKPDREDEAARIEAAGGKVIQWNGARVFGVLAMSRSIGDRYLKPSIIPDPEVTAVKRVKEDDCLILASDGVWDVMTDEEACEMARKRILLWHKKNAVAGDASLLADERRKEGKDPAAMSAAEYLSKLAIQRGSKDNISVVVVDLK
Change = W134C; value = 47.4%
Change = S80L; value = 44.8%
Change = R46Q; value = 41.6%
Change = F66W; value = 15.3%
Change = R123W; value = -1.87%
Change = V161N; value = 16.8%
Change = K116A; value = 2.93%
Change = G107L; value = -2.96%
Change = H110M; value = 27.5%
Change = N61C; value = 33.4%
Change = L82T; value = 6.94%
Change = V78W; value = 77.4%
Change = R111E; value = 1.07%
Change = S26W; value = 0.91%
Change = R24F; value = 0.0866%
Change = K54L; value = -3.6%
Change = L28P; value = 0.353%
Change = T6R; value = 49.9%
Change = R49P; value = -4.04%
Change = Y141K; value = -7.79%
Change = V70I; value = 26.8%
Change = S140C; value = 0.984%

For quick reference, copied from above (block 7):
Change = G107L; value = -2.96%
Change = H110M; value = 27.5%
Change = N61C; value = 33.4%
Change = L82T; value = 6.94%
Change = V78W; value = 77.4%
Change = R111E; value = 1.07%
Change = S26W; value = 0.91%
Change = R24F; value = 0.0866%
Change = K54L; value = -3.6%
Change = L28P; value = 0.353%
Change = T6R; value = 49.9%
Change = R49P; value = -4.04%
Change = Y141K; value = -7.79%
Change = V70I; value = 26.8%
